Measured values collected from several papers.
Each numbered part is a random draw from the data of one study; scales do not carry over between parts. Several values in a cell are separate wells, animals, samples, runs or records.

Set 1
Cell line: mouse MPNST tumor cells
Technique: high-content nuclear imaging
Measured: cell number
Concentration: 10 µM
Time: 12 h
Setting: mean of 2 replicates
Baseline: plate mean
Reading: higher = more cells
Endpoint: nuclei count
CN(C)CC(=O)Nc1ccc2[nH]c(=O)c3ccccc3c2c1: 1.92 z-score
COc1cc(OC)cc(-c2ccc3c(-c4ccc(F)cc4)[nH]nc3n2)c1: 0.343 z-score
CC1(C)CCC(CN2CCN(c3ccc(C(=O)NS(=O)(=O)c4ccc(NCC5CCOCC5)c([N+](=O)[O-])c4)c(Oc4cnc5[nH]ccc5c4)c3)CC2)=C(c2ccc(Cl)cc2)C1: 0.0458 z-score
C[C@@H]1C[C@H]2[C@@H]3CCC4=CC(=O)C=C[C@]4(C)[C@@]3(Cl)[C@@H](O)C[C@]2(C)[C@@]1(OC(=O)c1ccco1)C(=O)CCl: 1.53 z-score
CNc1ccc([N+](=O)[O-])cc1-n1cnc(-c2ccc(C(F)(F)F)cc2)c1: 1.15 z-score
CCOC(=O)OC(C)OC(=O)[C@@H]1N2C(=O)[C@@H](NC(=O)[C@H](N)c3ccccc3)[C@H]2SC1(C)C (some centres unmarked): -0.858 z-score
O=C1c2cc3c(cc2OC2CCCN12)OCCO3 (centres unmarked): -0.0517 z-score
O=C(O)[C@H]1CCCC[C@H]1C(=O)N1CCc2ccccc2[C@H]1CN1C(=O)c2ccccc2C1=O: 0.304 z-score
Nc1ncnc2c1nc(Br)n2[C@@H]1O[C@@H]2COP(=O)(O)O[C@H]2[C@H]1O: 1.58 z-score
C[N+](C)(C)CCCCCNCC12CC3CC(CC(C3)C1)C2: 0.839 z-score
Cc1cc(Nc2cc(C)c(C#N)c(NC(C)CCCC(C)(C)O)n2)n[nH]1 (centres unmarked): -6.35 z-score
CCCn1c(=O)c2[nH]c(-c3ccc(OCC(=O)NCCN)cc3)nc2n(CCC)c1=O: 2.29 z-score
O=C(NCC1(N2CCN(c3ccccc3)CC2)CCOCC1)c1cccnc1Sc1ccccc1: 3.16 z-score
CCN(CCO)CCCC(C)Nc1ccnc2cc(Cl)ccc12 (centres unmarked): 1.47 z-score and 2.87 z-score
CC1(CN2CCC(n3c(=O)[nH]c4ccccc43)CC2)OCc2ccccc2-n2cccc21 (centres unmarked): 2.39 z-score

Set 2
Target: Platelet-derived growth factor receptor alpha (PDGFRA, Homo sapiens, UniProt P16234)
Chain of UniProt P16234 (whole entry, looked up): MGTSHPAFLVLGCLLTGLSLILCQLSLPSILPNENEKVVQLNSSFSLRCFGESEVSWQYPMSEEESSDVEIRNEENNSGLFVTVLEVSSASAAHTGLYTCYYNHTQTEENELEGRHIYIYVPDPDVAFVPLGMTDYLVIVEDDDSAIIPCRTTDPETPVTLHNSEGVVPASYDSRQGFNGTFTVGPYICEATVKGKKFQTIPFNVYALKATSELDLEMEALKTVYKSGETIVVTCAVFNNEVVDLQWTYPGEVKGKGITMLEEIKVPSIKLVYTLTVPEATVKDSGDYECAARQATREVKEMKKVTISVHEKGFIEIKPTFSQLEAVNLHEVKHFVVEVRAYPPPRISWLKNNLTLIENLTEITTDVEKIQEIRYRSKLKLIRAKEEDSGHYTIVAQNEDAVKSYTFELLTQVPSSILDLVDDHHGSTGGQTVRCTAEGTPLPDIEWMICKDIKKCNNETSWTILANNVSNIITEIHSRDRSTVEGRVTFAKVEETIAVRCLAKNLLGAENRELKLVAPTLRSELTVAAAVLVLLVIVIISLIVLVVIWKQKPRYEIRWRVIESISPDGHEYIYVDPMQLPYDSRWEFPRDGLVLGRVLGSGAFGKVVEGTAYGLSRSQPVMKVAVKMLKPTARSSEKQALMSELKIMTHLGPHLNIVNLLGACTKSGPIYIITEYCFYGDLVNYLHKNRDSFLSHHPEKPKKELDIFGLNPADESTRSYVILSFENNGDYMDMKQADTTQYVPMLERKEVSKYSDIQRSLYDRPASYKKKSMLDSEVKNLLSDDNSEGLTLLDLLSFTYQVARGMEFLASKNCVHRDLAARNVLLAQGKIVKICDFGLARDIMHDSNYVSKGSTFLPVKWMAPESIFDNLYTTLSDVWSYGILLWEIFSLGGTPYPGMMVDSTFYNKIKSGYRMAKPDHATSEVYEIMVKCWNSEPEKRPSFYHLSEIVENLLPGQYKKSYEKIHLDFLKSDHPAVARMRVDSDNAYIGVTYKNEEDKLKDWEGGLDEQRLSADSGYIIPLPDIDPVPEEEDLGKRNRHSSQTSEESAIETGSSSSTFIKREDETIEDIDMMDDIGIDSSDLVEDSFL
Effect on: enzyme activity
Mode: inhibitor
Concentration: 0.5 µM
Baseline: control
Endpoint: remaining activity
CCOc1cc2ncnc(Nc3cccc(Br)c3)c2cc1OCC: 84.7%
O=C1NC(=O)/C(=C/c2ccc3nccnc3c2)S1: 106%
Cn1cnc2cc3c(Nc4cccc(Br)c4)ncnc3cc21: 107%
O=C(Nc1ccc(Cl)cc1)c1ccccc1NCc1ccncc1: 81.3%
CCN1/C(=C/C(C)=O)Sc2ccc(OC)cc21: 105%
Nc1[nH]nc2nnc(-c3c(-c4ccccc4)nn4ccccc34)cc12: 99.7%
CC(C)[C@H](CO)Nc1nc(Nc2cccc(Cl)c2)c2ncn(C(C)C)c2n1: 96.9%
COc1cc2ncc(-c3ccccc3)nc2cc1OC: 83.1%
C[S+]([O-])c1ccc(-c2nc(-c3ccncc3)c(-c3ccc(F)cc3)[nH]2)cc1 (centres unmarked): 98.8%
CN(C)CCCn1cc(C2=C(c3c[nH]c4ccccc34)C(=O)NC2=O)c2ccccc21: 69.2%
COc1ccc(Cl)cc1NC(=O)Nc1cc(C)nc2ccccc12: 88.5%
Cc1nc(Nc2ncc(C(=O)Nc3c(C)cccc3Cl)s2)cc(N2CCN(CCO)CC2)n1: 1.82%
COc1cc2ncnc(Nc3ccc(OCc4ccccc4)cc3)c2cc1OC: 91.3%
COc1cc2ncnc(N3CCN(C(=O)Nc4ccc(Oc5ccccc5)cc4)CC3)c2cc1OC: 16.4%
CC(C)c1nn(-c2c(Cl)cccc2Cl)c2nc(Cc3ccc(OCCO)cc3)[nH]c(=O)c12: 91.6%
COc1ccc(-c2cnc3c(-c4ccsc4)cnn3c2)cc1: 74.8%
O=c1cc(N2CCOCC2)oc2c1ccc1ccccc12: 83.9%
Cn1cc(/C=C2\C(=O)Nc3ccc(S(N)(=O)=O)cc32)c2ccccc21: 81%
CCC(=O)Nc1ccc2ncnc(Nc3cccc(Br)c3)c2c1: 107%
CC(=O)O/N=C1/C(c2c(O)[nH]c3cc(Br)ccc23)=Nc2ccccc21: 82.9%

Set 3
Structure (SMILES): COc1cc(C(=O)N2CCC(N3CCN(C)CC3)CC2)ccc1Nc1ncc2c(n1)N(C)c1ccccc1C(=O)N2C
Technique: KINOMEscan
Concentration: 10 µM
Baseline: DMSO control
Reading: lower = stronger binding
Endpoint: binding
FGFR2: 95%
YSK4: 99%
TNNI3K: 100%
ERK4: 100%
CSNK1A1L: 100%
BMX: 87%
ACVR1: 98%
CSNK2A1: 100%
DDR1: 100%
BRSK1: 81%
FLT3: 100%
ERBB4: 100%
MAP3K4: 100%
CLK3: 95%
PIK3CG: 15%
EPHB3: 100%
PRKG1: 98%

Set 4
Compound: CNC(=O)Nc1ccc2c(c1)CC[C@]21OC(=O)N(CC(=O)N(Cc2ccc(F)cc2)[C@@H](C)C(F)(F)F)C1=O
Concentration: 0.1 µM
Baseline: DMSO
Endpoint: viability
normal-adjacent epithelium patient-derived organoids sample G; CellTiter-Glo: 97.9% and 112%
normal-adjacent epithelium patient-derived organoids sample F; CellTiter-Glo: 106% and 85.9%
normal-adjacent epithelium patient-derived organoids sample H; CellTiter-Glo: 101% and 120%
sample C colorectal tumour organoid: 113%
sample C colorectal tumour organoid; replicate 2: 106%
sample I colorectal tumour organoid; replicate 2: 96.6%
sample I colorectal tumour organoid; replicate 1: 100%

Repeated from above (set 2):
CC(C)c1nn(-c2c(Cl)cccc2Cl)c2nc(Cc3ccc(OCCO)cc3)[nH]c(=O)c12: 91.6%
CC(C)[C@H](CO)Nc1nc(Nc2cccc(Cl)c2)c2ncn(C(C)C)c2n1: 96.9%
COc1cc2ncnc(N3CCN(C(=O)Nc4ccc(Oc5ccccc5)cc4)CC3)c2cc1OC: 16.4%
Cn1cc(/C=C2\C(=O)Nc3ccc(S(N)(=O)=O)cc32)c2ccccc21: 81%
CCOc1cc2ncnc(Nc3cccc(Br)c3)c2cc1OCC: 84.7%
CC(=O)O/N=C1/C(c2c(O)[nH]c3cc(Br)ccc23)=Nc2ccccc21: 82.9%
